Published values of several laboratories.
± gives the spread as reported.
AHR: Aryl hydrocarbon receptor (AHR, Delphinapterus leucas, UniProt Q95LD9)
Sequence of UniProt Q95LD9 (whole entry, looked up): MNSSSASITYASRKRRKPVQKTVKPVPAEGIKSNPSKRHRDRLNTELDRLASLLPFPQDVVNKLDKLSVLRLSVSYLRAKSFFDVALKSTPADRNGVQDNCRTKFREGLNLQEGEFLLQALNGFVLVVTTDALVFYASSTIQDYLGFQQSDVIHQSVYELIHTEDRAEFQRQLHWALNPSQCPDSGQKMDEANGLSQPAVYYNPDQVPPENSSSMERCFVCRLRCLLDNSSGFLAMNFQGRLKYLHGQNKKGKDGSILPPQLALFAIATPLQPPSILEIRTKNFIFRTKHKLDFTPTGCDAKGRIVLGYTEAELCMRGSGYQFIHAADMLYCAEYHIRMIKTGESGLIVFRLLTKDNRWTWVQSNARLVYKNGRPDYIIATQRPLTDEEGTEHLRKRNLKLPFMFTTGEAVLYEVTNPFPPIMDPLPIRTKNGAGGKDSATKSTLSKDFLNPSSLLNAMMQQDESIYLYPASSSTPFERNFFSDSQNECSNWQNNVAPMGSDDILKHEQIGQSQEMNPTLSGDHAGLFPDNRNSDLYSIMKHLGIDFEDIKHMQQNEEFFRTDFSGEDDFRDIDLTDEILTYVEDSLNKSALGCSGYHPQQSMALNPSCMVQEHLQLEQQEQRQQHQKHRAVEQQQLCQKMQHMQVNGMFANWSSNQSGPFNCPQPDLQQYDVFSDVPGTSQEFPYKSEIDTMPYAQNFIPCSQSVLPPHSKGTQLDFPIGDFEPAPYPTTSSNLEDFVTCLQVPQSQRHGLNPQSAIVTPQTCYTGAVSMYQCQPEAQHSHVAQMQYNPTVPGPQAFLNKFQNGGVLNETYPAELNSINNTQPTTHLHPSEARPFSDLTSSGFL
CYP2C19: Cytochrome P450 2C19 (CYP2C19, Homo sapiens, UniProt P33261)
Sequence of UniProt P33261 (whole entry, looked up): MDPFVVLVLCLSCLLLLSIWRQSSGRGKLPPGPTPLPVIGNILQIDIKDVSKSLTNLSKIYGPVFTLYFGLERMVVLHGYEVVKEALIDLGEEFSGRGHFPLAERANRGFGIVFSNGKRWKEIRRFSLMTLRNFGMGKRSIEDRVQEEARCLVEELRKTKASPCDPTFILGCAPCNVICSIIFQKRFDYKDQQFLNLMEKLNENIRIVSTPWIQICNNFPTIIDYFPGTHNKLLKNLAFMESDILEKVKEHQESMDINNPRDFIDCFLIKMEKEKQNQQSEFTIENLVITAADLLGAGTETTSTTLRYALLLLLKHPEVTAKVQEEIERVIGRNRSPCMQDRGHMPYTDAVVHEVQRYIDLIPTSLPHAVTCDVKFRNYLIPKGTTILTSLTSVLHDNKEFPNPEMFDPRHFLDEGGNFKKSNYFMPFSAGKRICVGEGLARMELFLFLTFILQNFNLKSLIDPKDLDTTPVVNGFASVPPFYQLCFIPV
CYP2C9: Cytochrome P450 2C9 (CYP2C9, Homo sapiens, UniProt P11712)
Sequence of UniProt P11712 (whole entry, looked up): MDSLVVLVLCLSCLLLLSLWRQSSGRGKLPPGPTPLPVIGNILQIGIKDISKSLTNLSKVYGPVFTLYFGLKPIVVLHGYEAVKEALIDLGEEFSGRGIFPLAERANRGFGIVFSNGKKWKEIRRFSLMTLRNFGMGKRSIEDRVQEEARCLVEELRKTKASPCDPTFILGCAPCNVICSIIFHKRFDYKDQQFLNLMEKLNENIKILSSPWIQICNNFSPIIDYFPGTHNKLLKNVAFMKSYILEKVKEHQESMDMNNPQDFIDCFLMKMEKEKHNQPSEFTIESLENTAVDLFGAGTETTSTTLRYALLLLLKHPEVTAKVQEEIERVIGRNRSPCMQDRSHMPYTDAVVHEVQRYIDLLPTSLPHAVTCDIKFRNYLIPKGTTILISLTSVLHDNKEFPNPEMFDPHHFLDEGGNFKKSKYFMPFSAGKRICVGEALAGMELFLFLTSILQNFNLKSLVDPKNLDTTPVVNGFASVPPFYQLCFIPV
Sequence of UniProt Q86VL8 (whole entry, looked up): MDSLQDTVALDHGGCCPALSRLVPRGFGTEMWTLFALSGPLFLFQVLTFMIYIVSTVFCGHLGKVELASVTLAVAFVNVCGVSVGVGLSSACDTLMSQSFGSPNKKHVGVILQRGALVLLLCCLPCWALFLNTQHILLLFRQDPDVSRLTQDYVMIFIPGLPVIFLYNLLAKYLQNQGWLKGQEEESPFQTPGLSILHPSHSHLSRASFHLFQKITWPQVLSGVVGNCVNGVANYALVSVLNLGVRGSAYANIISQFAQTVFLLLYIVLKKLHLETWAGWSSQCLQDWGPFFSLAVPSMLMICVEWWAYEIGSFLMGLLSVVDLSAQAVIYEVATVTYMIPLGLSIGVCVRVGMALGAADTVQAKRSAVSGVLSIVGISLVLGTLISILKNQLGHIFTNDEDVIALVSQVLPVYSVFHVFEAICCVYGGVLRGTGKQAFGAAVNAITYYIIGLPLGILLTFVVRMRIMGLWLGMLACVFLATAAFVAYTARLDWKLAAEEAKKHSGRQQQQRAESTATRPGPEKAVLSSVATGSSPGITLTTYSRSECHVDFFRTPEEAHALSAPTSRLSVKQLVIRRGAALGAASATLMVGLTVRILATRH
Sequence of UniProt P08183 (whole entry, looked up): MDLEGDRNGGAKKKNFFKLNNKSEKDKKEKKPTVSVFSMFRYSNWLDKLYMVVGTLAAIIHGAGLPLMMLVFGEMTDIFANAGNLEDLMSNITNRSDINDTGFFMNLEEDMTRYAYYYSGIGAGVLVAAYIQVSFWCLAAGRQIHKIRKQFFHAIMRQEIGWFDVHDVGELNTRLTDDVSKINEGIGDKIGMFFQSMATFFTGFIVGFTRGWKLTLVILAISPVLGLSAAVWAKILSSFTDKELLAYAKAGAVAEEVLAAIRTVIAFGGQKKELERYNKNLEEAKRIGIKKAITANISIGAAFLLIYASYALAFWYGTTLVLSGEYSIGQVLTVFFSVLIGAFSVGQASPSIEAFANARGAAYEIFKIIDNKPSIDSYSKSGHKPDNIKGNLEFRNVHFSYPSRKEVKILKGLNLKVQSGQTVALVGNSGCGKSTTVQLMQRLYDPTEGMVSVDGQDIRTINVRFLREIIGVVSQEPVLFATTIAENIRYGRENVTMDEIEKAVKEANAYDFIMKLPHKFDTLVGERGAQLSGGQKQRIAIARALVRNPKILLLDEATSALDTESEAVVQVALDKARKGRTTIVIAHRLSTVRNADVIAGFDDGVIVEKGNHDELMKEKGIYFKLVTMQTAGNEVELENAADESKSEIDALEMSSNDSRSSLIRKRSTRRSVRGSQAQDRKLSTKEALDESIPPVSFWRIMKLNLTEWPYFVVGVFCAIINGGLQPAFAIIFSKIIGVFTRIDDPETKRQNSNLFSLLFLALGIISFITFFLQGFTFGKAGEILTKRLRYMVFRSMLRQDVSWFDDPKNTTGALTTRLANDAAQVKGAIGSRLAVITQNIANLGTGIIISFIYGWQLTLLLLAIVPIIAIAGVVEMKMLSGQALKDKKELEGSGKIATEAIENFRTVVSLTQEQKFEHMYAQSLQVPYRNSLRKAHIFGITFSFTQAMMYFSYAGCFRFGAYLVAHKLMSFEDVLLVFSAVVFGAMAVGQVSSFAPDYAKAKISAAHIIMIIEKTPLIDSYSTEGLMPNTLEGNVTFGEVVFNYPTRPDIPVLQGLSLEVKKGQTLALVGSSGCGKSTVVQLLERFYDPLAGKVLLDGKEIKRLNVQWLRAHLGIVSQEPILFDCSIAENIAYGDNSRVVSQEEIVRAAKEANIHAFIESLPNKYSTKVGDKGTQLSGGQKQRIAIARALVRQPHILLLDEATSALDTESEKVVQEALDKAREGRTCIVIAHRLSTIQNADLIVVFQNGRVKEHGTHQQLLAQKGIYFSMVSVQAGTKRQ

Structure (SMILES)	target	assay	test system	conditions	IC50
Clc1ccc(-c2ccc(Cl)c(Cl)c2)cc1Cl	AHR	binding, competitor	–	in vitro expressed receptor, with: [3H]TCDD	0.0355 µM
CC1=CC(=O)c2ccccc2C1=O	CYP panel, human recombinant	enzyme activity, inhibitor	–	10 min, pH 7.4, with: fluorogenic substrates	2.36 to 9.77 µM
Clc1ccc(-c2cc(Cl)c(Cl)c(Cl)c2Cl)cc1Cl	AHR	binding, competitor	–	in vitro expressed receptor, with: [3H]TCDD	1.59 µM
O=C(O)C(F)(F)C(F)(F)C(F)(F)C(F)(F)C(F)(F)F	CYP2C19	enzyme activity, inhibitor	–	Supersomes, with: 7-BFC substrate	> 100 µM
COc1ccc2c3c1O[C@H]1C[C@@H](OC(=O)CCCCCCCCC(=O)O[C@H]4C=C[C@@]56CCN(C)Cc7ccc(OC)c(c75)O[C@H]6C4)C=C[C@@]31CCN(C)C2	ABCB1 (Homo sapiens, UniProt P08183)	BODIPY-FL-verapamil accumulation, inhibitor, flow cytometry	MCF7/DX1	with: 0.5 µM BODIPY-FL-verapamil	0.5 ± 0.1 µM
C[C@@H]1CC[C@]2(C(=O)O)CC[C@]3(C)C(=CC[C@@H]4[C@@]5(C)CC[C@H](O)[C@@](C)(CO)[C@@H]5CC[C@]43C)[C@@H]2[C@]1(C)O	CYP3A4/5	enzyme activity, inhibitor, probe cocktail incubation	pooled human liver microsomes	20 min, with: midazolam 1.535 µM and testosterone 17.34 µM	> 50 µM
CC(=O)C(O)C(c1ccccc1)c1c(O)c2ccccc2oc1=O (stereo not shown)	CYP2C9	enzyme activity, inhibitor, luciferase	–	–	1.6 µM
Clc1ccc(-c2cc(Cl)c(Cl)cc2Cl)cc1Cl	AHR	binding, competitor	–	in vitro expressed receptor, with: [3H]TCDD	6.31 µM
CC(=O)CC(c1ccccc1)c1c(O)c2cc(O)ccc2oc1=O (stereo not shown)	CYP2C9	enzyme activity, inhibitor, luciferase	–	–	47 µM
N#Cc1ccc(C(O)c2ccc(C#N)cc2)cc1	CYP2C19	inhibitor	–	–	19.5 µM
N#Cc1ccc(N2N=C3c4ccc(C(=O)N5CCC(O)CC5)nc4CC[C@@H]3[C@@H]2C2CCCC2)cc1Cl	SLC47A2 (Homo sapiens, UniProt Q86VL8)	transporter uptake, inhibitor	–	–	7.9 µM
Clc1cc(-c2cc(Cl)c(Cl)c(Cl)c2)cc(Cl)c1Cl	AHR	binding, competitor	–	in vitro expressed receptor, with: [3H]TCDD	0.0251 µM
O=S(=O)(O)C(F)(F)C(F)(F)C(F)(F)C(F)(F)C(F)(F)C(F)(F)C(F)(F)C(F)(F)F	CYP2C19	enzyme activity, inhibitor, fluorescence	–	–	46.6 µM

For quick reference, copied from above:
Structure (SMILES)	target	assay	test system	conditions	IC50
N#Cc1ccc(C(O)c2ccc(C#N)cc2)cc1	CYP2C19	inhibitor	–	–	19.5 µM
